Published values of several laboratories.
Parts stem from different laboratories: compare values within a part only.
Sequence of UniProt P00519 (whole entry, unmodified, looked up): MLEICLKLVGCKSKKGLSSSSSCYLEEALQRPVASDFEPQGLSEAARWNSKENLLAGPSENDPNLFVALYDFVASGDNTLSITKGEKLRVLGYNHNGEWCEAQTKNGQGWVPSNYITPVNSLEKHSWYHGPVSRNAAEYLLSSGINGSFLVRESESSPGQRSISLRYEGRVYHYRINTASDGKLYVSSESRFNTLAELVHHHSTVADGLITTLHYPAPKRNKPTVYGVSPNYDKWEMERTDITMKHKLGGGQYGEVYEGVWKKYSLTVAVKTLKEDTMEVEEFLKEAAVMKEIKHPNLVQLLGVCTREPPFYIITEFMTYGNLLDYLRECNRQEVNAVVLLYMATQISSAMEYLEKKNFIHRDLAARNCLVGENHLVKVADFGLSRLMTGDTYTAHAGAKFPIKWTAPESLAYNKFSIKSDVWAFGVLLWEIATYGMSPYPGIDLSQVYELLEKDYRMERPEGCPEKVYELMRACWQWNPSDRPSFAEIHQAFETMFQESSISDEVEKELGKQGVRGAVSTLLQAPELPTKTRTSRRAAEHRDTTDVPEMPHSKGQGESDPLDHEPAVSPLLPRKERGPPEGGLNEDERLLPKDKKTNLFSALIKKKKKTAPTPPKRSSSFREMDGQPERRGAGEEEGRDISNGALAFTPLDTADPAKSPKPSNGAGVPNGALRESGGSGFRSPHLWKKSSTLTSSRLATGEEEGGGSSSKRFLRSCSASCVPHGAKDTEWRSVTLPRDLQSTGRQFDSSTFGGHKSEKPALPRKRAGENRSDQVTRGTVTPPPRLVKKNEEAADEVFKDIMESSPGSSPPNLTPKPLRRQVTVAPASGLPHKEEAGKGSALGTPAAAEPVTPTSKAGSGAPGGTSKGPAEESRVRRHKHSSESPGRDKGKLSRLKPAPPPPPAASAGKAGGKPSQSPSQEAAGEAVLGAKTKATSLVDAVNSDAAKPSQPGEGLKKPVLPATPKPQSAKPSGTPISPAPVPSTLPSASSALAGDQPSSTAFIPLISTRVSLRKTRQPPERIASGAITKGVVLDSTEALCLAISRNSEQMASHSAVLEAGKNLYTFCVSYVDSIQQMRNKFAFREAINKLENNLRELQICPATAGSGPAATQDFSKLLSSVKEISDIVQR

Block 1 — technique: RNAcompete; molecule type: RNA; matrix: in vitro; tested at: 20 nM; setting: 7-mer, probes averaged, single round; baseline: mean of 7-mers; direction: higher = stronger binding
Target: PABPC1L2, full length, GST fusion (mouse, UniProt A0ABA7IW68)
Residues (chain): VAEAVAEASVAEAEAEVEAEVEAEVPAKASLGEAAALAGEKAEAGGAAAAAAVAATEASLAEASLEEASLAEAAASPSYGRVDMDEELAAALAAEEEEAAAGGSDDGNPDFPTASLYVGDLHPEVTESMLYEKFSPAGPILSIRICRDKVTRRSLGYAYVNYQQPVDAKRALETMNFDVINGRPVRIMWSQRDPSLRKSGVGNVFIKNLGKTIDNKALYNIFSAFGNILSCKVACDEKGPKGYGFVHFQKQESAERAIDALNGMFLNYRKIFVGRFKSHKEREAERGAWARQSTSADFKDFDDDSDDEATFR
With `ACCGCAU` the 7-mer Z-score was -0.0808.
With `GUAUAAU` the 7-mer Z-score was -0.2.
`CCUCGGG` gave a 7-mer Z-score of -0.342.
With `AUGCCAG` the 7-mer Z-score was -0.139.
`CCAGAUG` gave a 7-mer Z-score of -0.0663.
`UUGACCU` gave a 7-mer Z-score of -0.246.
For `UAAGGAU`, the 7-mer Z-score was -0.0192.
For `CUCAAGU`, the 7-mer Z-score was -0.3.

Block 2 — technique: aptamer microarray, sandwich; molecule type: DNA with 2'F-ANA; matrix: in vitro; tested at: 200 nM; added: Cy3 exosite-II aptamer, 400 nM; direction: higher = stronger binding; oligonucleotide: GGTTGGTGTGGTTGG
Target: Prothrombin, mature alpha-thrombin (F2, Homo sapiens, UniProt P00734)
Setting: whole 15-mer aptamer, many near background
`2'F-ANA at 1 4 6 8 9 10 15`: “mean fluorescence intensity” 92.9 a.u.
`2'F-ANA at 1 3 6 7 9`: “mean fluorescence intensity” 239 a.u.
`2'F-ANA at 1 3 5 10 14` — result for “mean fluorescence intensity”: 79.6 a.u.
For `2'F-ANA at 1 2 3 6 7 9 12 14 15`, “mean fluorescence intensity” read 77.1 a.u.
`2'F-ANA at 1 4 5 6 7 8 9 10 11 12 14` — result for “mean fluorescence intensity”: 47.7 a.u.
For `2'F-ANA at 4 5 6 7 8 9 10 13 14`, “mean fluorescence intensity” read 60.4 a.u.
Under “mean fluorescence intensity”, `2'F-ANA at 3 9 11 12 13 15` is recorded as 1180 a.u.
`2'F-ANA at 2 3 4 6 7 8 10 13 15`: “mean fluorescence intensity” 195 a.u.

Other studies, line by line
`COc1cc(C(=O)N2CCC(N3CCN(C)CC3)CC2)ccc1Nc1ncc2c(n1)N(C)c1ccccc1C(=O)N2C` gave a half-life of 4.47 h (mouse, plasma; intravenous, 1 mg/kg).
The remaining binding of `CCC(=NO)C(C)=Cc1ccc(F)c(C)c1` is reported as 100% (Tyrosine-protein kinase ABL1 (ABL1, Homo sapiens, UniProt P00519, E255K); KINOMEscan; 1 µM, E255K mutant, phosphorylated; baseline: control).
`CC(C)n1cnc(-c2ccc(F)cc2)c1-c1ncc(C(=O)Nc2ccc(N3CCN(C)CC3)cc2)[nH]1` — result for “patients with drug-induced liver injury”: 0% (human, idiopathic pulmonary fibrosis; 30 mg once daily, trial, treatment-emergent).

For quick reference, copied from above (block 2):
`2'F-ANA at 1 3 6 7 9`: “mean fluorescence intensity” 239 a.u.
`2'F-ANA at 1 4 5 6 7 8 9 10 11 12 14` — result for “mean fluorescence intensity”: 47.7 a.u.
